Published values of several laboratories.
Values joined by “and” are separate records of one study, mostly repeats; a detail may differ. ± marks the error that the study gave.
rep main protease: Replicase polyprotein 1ab, main protease (rep, Severe acute respiratory syndrome coronavirus 2, UniProt P0DTD1)
rep papain-like protease: Replicase polyprotein 1ab, papain-like protease (rep, Severe acute respiratory syndrome coronavirus 2, UniProt P0DTD1)

Structure (SMILES) | target or system | test | test system | setting | measurement | result
CNC(=O)CC1CN(C(=O)c2ccc(C(F)(F)F)cn2)CCN1C(=O)c1cccnn1 (stereo not drawn) | rep main protease | 3CL protease activity | – | 1 µM | remaining activity | 98.5%
C[C@](C(=O)NC1CCOCC1)(c1cncnc1)N(C(=O)[C@H](F)Cl)c1ccc(OC(F)(F)Cl)cc1 | rep main protease | enzyme activity | – | 1.111 µM | inhibition | 98.9% and 101%
C=CCn1c(C)cc(C(=O)COn2nnc3ccc(S(=O)(=O)N(C)C)cc32)c1C | rep main protease | protease activity, SAMDI-MS | – | – | Hill slope | 1.65
O=C(c1ccc(Br)cc1)N1CCC(c2ccn3ncc(C(=O)N4CCCCC4)c3c2)CC1 | Replicase polyprotein 1ab, nsp3 macrodomain (rep, Severe acute respiratory syndrome coronavirus 2, UniProt P0DTD1) | thermal stabilisation, differential scanning fluorimetry | – | 150 µM, SARS-CoV-2 | ΔTm | 0.47 ± 0.04 °C
CCCCCCCCCCCCCCCC(=O)N[C@@H](CCC(=O)NCCOCCOCCC(=O)NCCOCCOCCC(=O)NCCCC[C@H](NC(=O)[C@H](CC(=O)O)NC(=O)[C@H](CC(C)C)NC(=O)[C@H](Cc1ccc(O)cc1)NC(=O)[C@H](CCCCN)NC(=O)[C@H](CO)NC(=O)[C@H](Cc1ccc(O)cc1)NC(=O)[C@H](CC(=O)O)NC(=O)[C@H](CO)NC(=O)[C@@H](NC(=O)[C@H](Cc1ccccc1)NC(=O)[C@@H](NC(=O)CNC(=O)[C@H](CCC(N)=O)NC(=O)[C@@H](CO)NC(=O)[C@@H](N)Cc1c[nH]cn1)[C@@H](C)O)[C@@H](C)O)C(=O)N[C@@H](CCCNC(=N)N)C(=O)N[C@@H](CCCNC(=N)N)C(=O)N[C@@H](C)C(=O)N[C@@H](CCC(N)=O)C(=O)N[C@@H](CC(=O)O)C(=O)N[C@@H](Cc1ccccc1)C(=O)N[C@H](C(=O)N[C@@H](CCC(N)=O)C(=O)N[C@@H](Cc1c[nH]c2ccccc12)C(=O)N[C@@H](CC(C)C)C(=O)N[C@@H](CC(C)C)C(=O)N[C@@H](CC(N)=O)C(=O)N[C@H](C(=O)NCC(=O)NCC(=O)N1CCC[C@H]1C(=O)N[C@@H](CO)C(=O)N[C@@H](CO)C(=O)NCC(=O)N[C@@H](C)C(=O)N1CCC[C@H]1C(=O)N1CCC[C@H]1C(=O)N1CCC[C@H]1C(=O)N[C@@H](CO)C(N)=O)[C@@H](C)O)C(C)C)C(=O)O | – | – | rhesus monkey, male, plasma | subcutaneous, 300 µg/kg, day 1, toxicokinetics, mean | AUC(0-t) | 3890 ng·h/mL
C=C[C@@H]1C[C@]1(NC(=O)[C@@H]1C[C@@H](Oc2ncc(OC)c3ccc(Cl)cc23)CN1C(=O)[C@@H](NC(=O)OC(C)(C)C)C(C)(C)C)C(=O)NS(=O)(=O)C1CC1 | rep papain-like protease | protease activity, inhibitor, fluorescence | – | 20 µM, 25 °C | remaining activity | no inhibition
O=c1oc2c(O)c(O)ccc2c2cc(O)c(O)cc12 | rep main protease | – | – | – | binding efficiency index | 27.6
Cc1ccc(OCCN(C)C)cc1C(=O)N[C@H](C)c1cc(-c2cccnc2N2CCCC2)nc2ccccc12 | rep papain-like protease | reporter gene, cell-based | – | – | GFP/mCherry signal ratio | 0 and 90.5 and 73.4 and 25.9 and 69.1
CCOc1ccc(CN2CC[C@H]2C(=O)NC)cc1-c1cccc(C(=O)NC[C@@H]2COC(C)(C)O2)c1 | rep main protease | – | – | 0.5229 µM | remaining activity | 111%
CC(=O)Nc1ccc(-c2cnc(N3C(=O)CSC3c3cc4ccccc4nc3Cl)s2)cc1 (stereo not drawn) | rep main protease | thermal stability | – | 100 µM | ΔTm | -1 °C
C=C1CCC2[C@](C)(CO)[C@H](O)CC[C@@]2(C)[C@@H]1/C=C/C1=CCOC1=O (stereo partly drawn) | rep main protease | enzyme activity, inhibitor | – | 20 µM | remaining activity | > 99%
CC1(C)C2CCC1(C)C(n1[se]c3ccccc3c1=O)C2 (stereo not drawn) | rep main protease | enzyme activity, inhibitor | – | 40 µM, mean of repeats | inhibition | 99.2%
Brc1c(Br)c(Br)c2[nH]nnc2c1Br | Replicase polyprotein 1ab, nsp14 N7-methyltransferase (rep, Severe acute respiratory syndrome coronavirus 2, UniProt P0DTD1) | N7-methyltransferase activity, inhibitor, Py-FLINT | – | – | Hill slope | 0.91 ± 0.16
CCOC(=O)[C@@H](NC(=O)c1ccccc1[Se][Se]c1ccccc1C(=O)N[C@H](C(=O)OCC)C(C)C)C(C)C | rep main protease | enzyme activity, inhibitor | – | 40 µM | inhibition | 88.7% and 86.5%
O=C(NCCc1cccc(F)c1)[C@H](c1cncnc1)N(C(=O)[C@H](F)Cl)c1ccc(S(F)(F)(F)(F)F)cc1 | rep main protease | enzyme activity, inhibitor | – | – | kinact | 0.0043 s⁻¹

Some of these lines once more:
Structure (SMILES) | target or system | test | test system | setting | measurement | result
C[C@](C(=O)NC1CCOCC1)(c1cncnc1)N(C(=O)[C@H](F)Cl)c1ccc(OC(F)(F)Cl)cc1 | rep main protease | enzyme activity | – | 1.111 µM | inhibition | 98.9% and 101%
CCOC(=O)[C@@H](NC(=O)c1ccccc1[Se][Se]c1ccccc1C(=O)N[C@H](C(=O)OCC)C(C)C)C(C)C | rep main protease | enzyme activity, inhibitor | – | 40 µM | inhibition | 88.7% and 86.5%
